Results gathered from unrelated publications.
A part holds a random share of what one study measured. Changes are numbered by the printed parent chain.

Sample 1
Target: Interferon regulatory factor 7, full length, phosphomimetic (IRF7, Homo sapiens, UniProt Q92985, residues 1-503, S471D/S472D/S475D/S476D/S477D/S483D/S484D/S487D)
Method: protein-binding microarray
Molecule type: double-stranded DNA, one strand shown
Matrix: in vitro
Concentration: 2200 nM top
Notes: 60-bp whole probe
Added: salmon DNA 0.4 mg/ml
Relative to: random background probes
Direction: higher = stronger binding
Shared flanks, not repeated: GCCTAGCAC … GTCTTGATTCGCTTGACGCTGCTG
Target sequence (chain): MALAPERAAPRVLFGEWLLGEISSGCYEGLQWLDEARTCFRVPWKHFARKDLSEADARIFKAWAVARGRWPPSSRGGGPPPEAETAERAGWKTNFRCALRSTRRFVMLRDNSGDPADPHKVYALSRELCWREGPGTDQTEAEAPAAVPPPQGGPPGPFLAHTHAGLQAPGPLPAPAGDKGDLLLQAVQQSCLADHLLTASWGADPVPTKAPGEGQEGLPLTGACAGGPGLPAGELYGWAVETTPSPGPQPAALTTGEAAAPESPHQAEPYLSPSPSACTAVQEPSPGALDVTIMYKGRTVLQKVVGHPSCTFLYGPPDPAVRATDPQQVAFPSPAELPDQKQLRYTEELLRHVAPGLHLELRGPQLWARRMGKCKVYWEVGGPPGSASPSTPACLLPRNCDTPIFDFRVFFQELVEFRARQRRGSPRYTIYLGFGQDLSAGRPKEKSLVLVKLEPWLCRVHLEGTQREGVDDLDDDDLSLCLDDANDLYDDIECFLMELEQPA
| Oligonucleotide | fitted relative affinity |
| --- | --- |
| GAGGGTATCGGGTTTCGGGACGTGCTA | 1.2 z-score |
| GATGGTATCGGTTTCGGGACGTGCTAG | 4.03 z-score |
| GAGGGTATCGGGACTGGGGACGTGCTA | -0.634 z-score |
| TTAGATCTCAGTCTCGACTAGTGCTAG | 0.0608 z-score |
| TTAGATTGCAGTATCGATTAGTGCTAG | 0.276 z-score |
| GACGATATCAGAGTGGAGACGTGCTAG | -0.303 z-score |
| TTAGGTTCCCTTTCCCTTTAGTGCTAG | 4.19 z-score |
| TTAGATATCTGGACTGGATTAGTGCTA | -0.403 z-score |
| TTAGAGTTCAGACTGGATTAGTGCTAG | -0.696 z-score |
| TTAGGACGGGACTATCGGTTAGTGCTA | -0.515 z-score |
| TCATTTTAATTTTTAACACTGTGCTAG | 1.28 z-score |
| GACGATTTCGGGTTTCCAGACGTGCTA | 4.99 z-score |
| GACGGACTGGGGACAGGGGACGTGCTA | -0.682 z-score |
| TTAGATTTCGGGTATCGATGAGTGCTA | 2.5 z-score |
| TAGTTTCTAAAACTCTTTATGTGCTAG | 1.13 z-score |
| GACGGTTTCGGACTGGGGGCGTGCTAG | 4.03 z-score |
| TCACATCTGCAAGATCCAACTGTGCTA | 0.995 z-score |
| TTAGATCTCAGTATGGATTAGTGCTAG | -0.095 z-score |
| TCTAATTAGAATTTAAAACAGTGCTAG | -0.758 z-score |
| TTAGACCTGAGACTGGATTAGTGCTAG | -0.606 z-score |
| CTACTTCTCTTTTGGCTTTCGTGCTAG | 3.84 z-score |
| GCCGGACTGGGTCTCGGGACGTGCTAG | -1.28 z-score |
| TCATGCATCTATCTTAAACTGTGCTAG | 0.815 z-score |
| GACGGCATCGGTCTCGGGACGTGCTAG | -0.558 z-score |
| TCCTAATTCTCTTTTCACTTGTGCTAG | 2.11 z-score |

Sample 2
Target: ABI1, truncated, D143A, DHFR fusion (Arabidopsis thaliana)
Method: DHFR PCA, deep sequencing
Matrix: yeast
Notes: methotrexate growth selection, single substitutions
Added: (+)-ABA 0.11 µM
Relative to: wild-type fitted maximum
Direction: higher = stronger binding
Starting sequence: PYL1, truncated, DHFR fusion (Arabidopsis thaliana); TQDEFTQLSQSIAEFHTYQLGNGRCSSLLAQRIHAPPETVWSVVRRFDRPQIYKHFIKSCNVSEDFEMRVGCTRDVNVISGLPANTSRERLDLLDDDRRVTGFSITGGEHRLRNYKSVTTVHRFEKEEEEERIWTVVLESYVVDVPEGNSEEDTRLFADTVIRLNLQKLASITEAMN; partner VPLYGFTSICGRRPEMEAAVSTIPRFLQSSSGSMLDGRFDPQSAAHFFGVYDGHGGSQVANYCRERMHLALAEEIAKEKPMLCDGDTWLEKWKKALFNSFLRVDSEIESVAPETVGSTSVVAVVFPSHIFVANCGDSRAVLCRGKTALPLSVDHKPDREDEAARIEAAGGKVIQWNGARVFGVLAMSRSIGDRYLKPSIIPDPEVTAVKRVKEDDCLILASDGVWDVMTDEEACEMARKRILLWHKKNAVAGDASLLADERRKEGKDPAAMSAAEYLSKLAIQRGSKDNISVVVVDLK
| Variant | relative binding score [%] |
| --- | --- |
| E152M | 7.86 |
| S104C | 2.15 |
| S27L | 2.11 |
| Y115N | 1.27 |
| V145F | -18.3 |
| L82S | 6.88 |
| N61I | 52.2 |
| F15V | 0.321 |
| Q2A | 48.3 |
| S87N | 2.24 |
| V118A | 1.82 |
| A35N | -2.55 |
| R74M | 10.4 |
| N165L | 6.81 |
| Y18G | 2.19 |
| N77R | 54.9 |
| E109I | -3.73 |
| R155N | -1.12 |
| G102Q | -2.94 |
| P83V | 2.07 |
| S150F | -12.9 |
| T1V | 45.1 |

Sample 3
Target: Prothrombin, mature alpha-thrombin (F2, Homo sapiens, UniProt P00734)
Method: aptamer microarray, sandwich
Molecule type: DNA with 2'F-ANA
Matrix: in vitro
Concentration: 200 nM
Notes: whole 15-mer aptamer, many near background
Added: Cy3 exosite-II aptamer, 400 nM
Direction: higher = stronger binding
Oligonucleotide: GGTTGGTGTGGTTGG
| Modification | mean fluorescence intensity [a.u.] |
| --- | --- |
| 2'F-ANA at 2 4 5 7 8 10 11 12 14 15 | 45.6 |
| 2'F-ANA at 1 7 8 10 12 13 14 15 | 49.4 |
| 2'F-ANA at 2 3 4 6 9 14 | 280 |
| 2'F-ANA at 2 3 5 7 8 9 10 11 12 13 15 | 62.8 |
| 2'F-ANA at 1 2 3 6 9 10 11 12 13 15 | 77.4 |
| 2'F-ANA at 2 6 8 9 12 13 | 496 |
| 2'F-ANA at 1 2 4 5 7 8 10 11 13 | 68.6 |
| 2'F-ANA at 1 6 14 15 | 63.5 |
| 2'F-ANA at 2 3 6 8 11 14 15 | 342 |
| 2'F-ANA at 4 5 9 11 12 | 119 |
| 2'F-ANA at 1 3 5 7 10 11 12 | 57.3 |
| 2'F-ANA at 2 4 5 8 9 10 11 13 15 | 48.1 |
| 2'F-ANA at 2 3 5 8 9 10 12 13 | 56.5 |
| 2'F-ANA at 2 7 9 10 11 12 13 14 | 84.5 |
| 2'F-ANA at 2 3 7 8 9 10 13 15 | 343 |
| 2'F-ANA at 2 4 5 9 11 12 15 | 97.7 |
| 2'F-ANA at 1 3 4 5 8 9 10 13 15 | 47.1 |
| 2'F-ANA at 1 3 6 7 10 12 13 14 15 | 64.3 |
| 2'F-ANA at 3 7 8 11 12 13 14 15 | 783 |
| 2'F-ANA at 1 3 5 7 13 15 | 57 |
| 2'F-ANA at 2 6 9 13 14 | 99.5 |
| 2'F-ANA at 2 5 7 8 10 12 13 | 48.5 |
| 2'F-ANA at 1 4 6 9 10 11 13 14 | 47.7 |

Sample 4
Target: Histone acetyltransferase KAT6A, winged helix 2, GST fusion (KAT6A, Homo sapiens, UniProt Q92794, residues 85-181)
Method: protein binding microarray
Molecule type: double-stranded DNA, one strand shown
Matrix: in vitro
Concentration: not given
Notes: 8-mer, flanks averaged, mean of 2 arrays, mostly near background
Relative to: not given
Direction: higher = stronger binding
Construct (chain): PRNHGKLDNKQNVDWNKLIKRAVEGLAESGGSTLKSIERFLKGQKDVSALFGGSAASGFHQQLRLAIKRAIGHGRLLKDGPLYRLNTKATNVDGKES
| Oligonucleotide | E-score |
| --- | --- |
| AGGCTCCC | 0.0333 |
| ACGTGCCC | -0.185 |
| CAAATCTC | 0.0152 |
| AACAAAGC | 0.153 |
| TATTCTAA | 0.0662 |
| TCCAGGCA | 0.0368 |
| CGCGCCTA | 0.0801 |
| ACCTTAAC | -0.213 |
| CAGTCGGA | -0.0673 |
| GCTTCGAA | 0.122 |
| ACCACACG | -0.0249 |
| ATATTTAA | 0.025 |
| ATTCACGG | 0.0508 |
| GCCGTGAA | 0.112 |
| ATATGTCA | -0.0406 |
| CCGGGTAC | 0.166 |
| GGAGGAAC | -0.0657 |
| CCCTCTCC | -0.0432 |
| AGACGCCT | -0.155 |
| TAGTTCAA | -0.0162 |
| CTATCAAC | 0.168 |
| CGGACCCG | 0.227 |

Sample 5
Organism: Saccharomyces cerevisiae
Observed: binding
Method: competitive growth deep sequencing
Molecule type: peptide
Strain: cyclin D3-Cln2 fusion strain
Notes: peptide tiling library
Direction: direction not given
| Sequence | enrichment score |
| --- | --- |
| SPREGHMMDALYAQVK | 0.372 |
| KRRLDLETDHQY | -1.05 |
| LKGRRLVFDN | 0.327 |
| IQKKLRFEDTLEFVGF | -1.44 |
| MNQELLSVGSKRRRTG | -0.36 |
| SDSTVTKLDFDLEP | 1.09 |
| RSLKLDGLLEEN | -0.472 |
| PLRKAKRARLCSSSSS | 1.77 |
| VLLKRLQDVVSERANH | 3.11 |
| EPKTLFLGAGDFQF | 1.72 |
| TRRRLFVENDSP | -0.967 |
| AGSAKRRLFGEDPPKE | -0.57 |
| CFRCLLFSFSGRSGVE | -1.97 |
| RVSGLLSWTLSRVLWL | -0.85 |
| ESSTVSEEDYFSSHRD | 1.21 |
| RDLFDCDFGDLTPLDF | 1.83 |
| QDYERRLLRQIVIQNE | -0.862 |
| TSPGPVLLHPSPSTTQ | 0.909 |
| ALLRRLQDVANDRGSH | 3.26 |
| KPITLDTTDFQESFVT | 0.898 |
| KDDDKAWEYEERDRRS | 0.814 |
| ISRLFPPRTPGWHQLQ | -2.81 |

Sample 6
Target: NFIL3, bZIP domain (human)
Method: DHFR protein complementation
Matrix: yeast
Notes: single substitutions, most at no-binding floor
Relative to: wild-type JUN-FOS pair
Direction: higher = stronger binding
Starting sequence: JUN, bZIP domain (human); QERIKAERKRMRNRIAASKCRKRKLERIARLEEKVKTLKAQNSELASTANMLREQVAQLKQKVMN; partner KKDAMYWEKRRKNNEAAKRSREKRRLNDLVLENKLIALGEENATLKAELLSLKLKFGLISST
| Variant | binding fitness |
| --- | --- |
| K39R | -1.24 natural log |
| A29K | -1.24 natural log |
| I28S | -1.51 natural log |
| L31E | -1.52 natural log |
| T37C | -1.04 natural log |
| A57S | -1.5 natural log |
| T48A | -1.36 natural log |
| E33G | -1.45 natural log |
| K39L | -1.51 natural log |
| R53F | -1.48 natural log |
| T48R | -1.24 natural log |
| L31N | -1.51 natural log |
| T37P | -1.51 natural log |
| N42S | -1.43 natural log |
| E32S | -1.48 natural log |
| K34S | -1.5 natural log |
| A49S | -1.38 natural log |

Excerpt of the above (sample 1):
| Oligonucleotide | fitted relative affinity |
| --- | --- |
| TCTAATTAGAATTTAAAACAGTGCTAG | -0.758 z-score |
| TTAGATTTCGGGTATCGATGAGTGCTA | 2.5 z-score |
| GAGGGTATCGGGACTGGGGACGTGCTA | -0.634 z-score |
| GATGGTATCGGTTTCGGGACGTGCTAG | 4.03 z-score |
| GACGGTTTCGGACTGGGGGCGTGCTAG | 4.03 z-score |
| TTAGGACGGGACTATCGGTTAGTGCTA | -0.515 z-score |
| TTAGAGTTCAGACTGGATTAGTGCTAG | -0.696 z-score |
| TTAGATCTCAGTCTCGACTAGTGCTAG | 0.0608 z-score |
| GACGGACTGGGGACAGGGGACGTGCTA | -0.682 z-score |
| GACGGCATCGGTCTCGGGACGTGCTAG | -0.558 z-score |
| TTAGACCTGAGACTGGATTAGTGCTAG | -0.606 z-score |
| CTACTTCTCTTTTGGCTTTCGTGCTAG | 3.84 z-score |
| TTAGGTTCCCTTTCCCTTTAGTGCTAG | 4.19 z-score |
| TTAGATCTCAGTATGGATTAGTGCTAG | -0.095 z-score |
| TCATTTTAATTTTTAACACTGTGCTAG | 1.28 z-score |
| TCATGCATCTATCTTAAACTGTGCTAG | 0.815 z-score |
| TCCTAATTCTCTTTTCACTTGTGCTAG | 2.11 z-score |
| GACGATATCAGAGTGGAGACGTGCTAG | -0.303 z-score |
| GAGGGTATCGGGTTTCGGGACGTGCTA | 1.2 z-score |
| TCACATCTGCAAGATCCAACTGTGCTA | 0.995 z-score |
| TTAGATATCTGGACTGGATTAGTGCTA | -0.403 z-score |
| GCCGGACTGGGTCTCGGGACGTGCTAG | -1.28 z-score |
